Measured values collected from several papers.
A part holds a random share of what one study measured.
Sequence of UniProt Q16620 (whole entry, looked up): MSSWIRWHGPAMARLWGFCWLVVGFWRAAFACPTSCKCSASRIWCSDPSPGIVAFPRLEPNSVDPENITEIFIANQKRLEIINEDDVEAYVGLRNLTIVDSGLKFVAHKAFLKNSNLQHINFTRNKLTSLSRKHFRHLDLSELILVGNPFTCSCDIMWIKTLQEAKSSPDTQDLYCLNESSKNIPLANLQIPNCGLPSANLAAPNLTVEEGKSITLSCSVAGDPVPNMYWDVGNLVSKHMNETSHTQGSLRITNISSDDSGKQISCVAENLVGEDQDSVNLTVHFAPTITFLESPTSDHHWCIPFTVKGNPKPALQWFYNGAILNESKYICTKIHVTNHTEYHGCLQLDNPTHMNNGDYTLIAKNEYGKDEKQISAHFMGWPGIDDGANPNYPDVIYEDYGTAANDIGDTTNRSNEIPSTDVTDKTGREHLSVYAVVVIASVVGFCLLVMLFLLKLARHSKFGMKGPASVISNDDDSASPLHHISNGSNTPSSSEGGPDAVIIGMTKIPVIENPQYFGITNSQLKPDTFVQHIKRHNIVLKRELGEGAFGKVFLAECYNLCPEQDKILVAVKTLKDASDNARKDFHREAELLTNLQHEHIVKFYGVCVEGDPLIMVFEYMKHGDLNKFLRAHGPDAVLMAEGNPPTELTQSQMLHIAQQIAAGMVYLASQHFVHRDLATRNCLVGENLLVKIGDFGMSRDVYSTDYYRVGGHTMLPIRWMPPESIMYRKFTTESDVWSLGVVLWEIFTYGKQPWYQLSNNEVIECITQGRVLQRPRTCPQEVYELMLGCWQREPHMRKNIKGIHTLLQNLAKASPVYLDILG
Sequence of UniProt Q04912 (whole entry, looked up): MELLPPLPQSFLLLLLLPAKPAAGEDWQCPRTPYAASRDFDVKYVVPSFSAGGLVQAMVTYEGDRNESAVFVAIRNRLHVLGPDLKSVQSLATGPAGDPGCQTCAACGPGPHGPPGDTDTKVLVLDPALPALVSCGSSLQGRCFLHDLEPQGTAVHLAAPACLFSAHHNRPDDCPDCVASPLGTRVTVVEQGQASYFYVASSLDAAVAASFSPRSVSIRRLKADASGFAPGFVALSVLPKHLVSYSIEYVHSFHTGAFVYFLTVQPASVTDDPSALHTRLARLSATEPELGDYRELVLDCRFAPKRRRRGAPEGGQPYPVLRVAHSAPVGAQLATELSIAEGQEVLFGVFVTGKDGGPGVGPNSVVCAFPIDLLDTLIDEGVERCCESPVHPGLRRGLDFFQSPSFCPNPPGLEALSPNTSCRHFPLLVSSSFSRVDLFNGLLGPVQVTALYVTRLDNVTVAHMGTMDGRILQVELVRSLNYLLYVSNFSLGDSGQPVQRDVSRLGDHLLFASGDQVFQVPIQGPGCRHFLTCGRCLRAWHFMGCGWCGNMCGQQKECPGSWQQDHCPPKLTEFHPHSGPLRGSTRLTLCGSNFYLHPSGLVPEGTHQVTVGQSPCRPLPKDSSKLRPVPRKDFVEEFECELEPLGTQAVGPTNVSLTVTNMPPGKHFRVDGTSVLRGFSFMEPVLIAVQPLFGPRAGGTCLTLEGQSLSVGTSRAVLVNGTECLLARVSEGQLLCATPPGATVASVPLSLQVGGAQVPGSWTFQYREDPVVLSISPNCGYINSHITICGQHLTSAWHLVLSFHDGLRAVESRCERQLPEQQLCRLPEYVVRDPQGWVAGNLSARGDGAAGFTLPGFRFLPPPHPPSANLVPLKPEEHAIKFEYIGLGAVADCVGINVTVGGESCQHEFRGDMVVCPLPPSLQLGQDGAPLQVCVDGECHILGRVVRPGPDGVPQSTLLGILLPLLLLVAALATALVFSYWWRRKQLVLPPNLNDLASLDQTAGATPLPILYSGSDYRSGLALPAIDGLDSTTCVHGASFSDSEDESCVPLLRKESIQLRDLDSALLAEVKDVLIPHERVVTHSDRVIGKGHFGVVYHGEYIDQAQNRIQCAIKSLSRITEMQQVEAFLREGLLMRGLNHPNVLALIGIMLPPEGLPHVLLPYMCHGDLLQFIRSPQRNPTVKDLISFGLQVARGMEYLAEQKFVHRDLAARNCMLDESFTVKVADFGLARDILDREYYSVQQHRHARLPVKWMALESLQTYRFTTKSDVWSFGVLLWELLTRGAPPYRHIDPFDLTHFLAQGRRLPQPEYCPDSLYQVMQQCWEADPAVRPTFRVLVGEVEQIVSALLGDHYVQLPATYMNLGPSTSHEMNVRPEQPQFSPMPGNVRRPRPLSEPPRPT
Sequence of UniProt Q96PN8 (whole entry, looked up): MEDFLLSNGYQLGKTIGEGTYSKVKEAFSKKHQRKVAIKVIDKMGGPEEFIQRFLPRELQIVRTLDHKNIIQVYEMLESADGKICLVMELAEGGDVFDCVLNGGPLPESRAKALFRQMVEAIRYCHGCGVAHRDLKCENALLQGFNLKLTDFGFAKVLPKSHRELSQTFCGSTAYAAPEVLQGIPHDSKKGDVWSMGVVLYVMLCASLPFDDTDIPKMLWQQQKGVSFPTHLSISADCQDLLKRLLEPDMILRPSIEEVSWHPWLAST
Sequence of UniProt P15056 (whole entry, looked up): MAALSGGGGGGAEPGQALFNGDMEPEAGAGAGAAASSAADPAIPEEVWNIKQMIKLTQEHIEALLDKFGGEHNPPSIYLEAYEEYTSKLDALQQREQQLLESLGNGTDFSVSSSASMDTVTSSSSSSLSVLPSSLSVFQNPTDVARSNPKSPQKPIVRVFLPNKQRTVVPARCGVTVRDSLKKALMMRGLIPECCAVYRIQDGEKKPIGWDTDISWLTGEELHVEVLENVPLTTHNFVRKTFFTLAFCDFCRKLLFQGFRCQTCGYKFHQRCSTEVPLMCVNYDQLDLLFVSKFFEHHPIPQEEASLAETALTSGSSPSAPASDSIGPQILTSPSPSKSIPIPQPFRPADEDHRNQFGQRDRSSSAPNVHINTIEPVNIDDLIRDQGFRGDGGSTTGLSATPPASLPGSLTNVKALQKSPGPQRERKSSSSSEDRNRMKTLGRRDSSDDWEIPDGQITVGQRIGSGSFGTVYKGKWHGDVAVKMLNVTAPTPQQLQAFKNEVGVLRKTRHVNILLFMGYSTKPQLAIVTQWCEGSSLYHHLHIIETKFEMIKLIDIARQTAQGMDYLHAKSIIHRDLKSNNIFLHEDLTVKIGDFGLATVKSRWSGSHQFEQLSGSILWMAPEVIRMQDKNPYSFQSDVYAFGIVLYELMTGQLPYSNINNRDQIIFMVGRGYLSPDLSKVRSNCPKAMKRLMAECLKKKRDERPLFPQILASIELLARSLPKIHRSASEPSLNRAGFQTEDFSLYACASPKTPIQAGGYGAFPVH
Sequence of UniProt Q16566 (whole entry, looked up): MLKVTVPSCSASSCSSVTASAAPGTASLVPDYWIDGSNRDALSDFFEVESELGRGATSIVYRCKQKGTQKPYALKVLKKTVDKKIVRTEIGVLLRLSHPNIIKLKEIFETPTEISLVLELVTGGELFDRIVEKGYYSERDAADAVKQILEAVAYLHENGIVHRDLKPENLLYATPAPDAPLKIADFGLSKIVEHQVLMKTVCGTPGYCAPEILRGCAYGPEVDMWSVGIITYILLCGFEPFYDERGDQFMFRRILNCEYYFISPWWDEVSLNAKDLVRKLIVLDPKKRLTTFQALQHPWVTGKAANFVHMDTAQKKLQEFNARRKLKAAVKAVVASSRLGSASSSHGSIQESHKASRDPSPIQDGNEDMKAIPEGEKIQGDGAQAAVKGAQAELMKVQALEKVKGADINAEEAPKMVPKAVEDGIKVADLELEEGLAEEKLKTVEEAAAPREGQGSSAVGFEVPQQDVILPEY
Sequence of UniProt P10721 (whole entry, unmodified, looked up): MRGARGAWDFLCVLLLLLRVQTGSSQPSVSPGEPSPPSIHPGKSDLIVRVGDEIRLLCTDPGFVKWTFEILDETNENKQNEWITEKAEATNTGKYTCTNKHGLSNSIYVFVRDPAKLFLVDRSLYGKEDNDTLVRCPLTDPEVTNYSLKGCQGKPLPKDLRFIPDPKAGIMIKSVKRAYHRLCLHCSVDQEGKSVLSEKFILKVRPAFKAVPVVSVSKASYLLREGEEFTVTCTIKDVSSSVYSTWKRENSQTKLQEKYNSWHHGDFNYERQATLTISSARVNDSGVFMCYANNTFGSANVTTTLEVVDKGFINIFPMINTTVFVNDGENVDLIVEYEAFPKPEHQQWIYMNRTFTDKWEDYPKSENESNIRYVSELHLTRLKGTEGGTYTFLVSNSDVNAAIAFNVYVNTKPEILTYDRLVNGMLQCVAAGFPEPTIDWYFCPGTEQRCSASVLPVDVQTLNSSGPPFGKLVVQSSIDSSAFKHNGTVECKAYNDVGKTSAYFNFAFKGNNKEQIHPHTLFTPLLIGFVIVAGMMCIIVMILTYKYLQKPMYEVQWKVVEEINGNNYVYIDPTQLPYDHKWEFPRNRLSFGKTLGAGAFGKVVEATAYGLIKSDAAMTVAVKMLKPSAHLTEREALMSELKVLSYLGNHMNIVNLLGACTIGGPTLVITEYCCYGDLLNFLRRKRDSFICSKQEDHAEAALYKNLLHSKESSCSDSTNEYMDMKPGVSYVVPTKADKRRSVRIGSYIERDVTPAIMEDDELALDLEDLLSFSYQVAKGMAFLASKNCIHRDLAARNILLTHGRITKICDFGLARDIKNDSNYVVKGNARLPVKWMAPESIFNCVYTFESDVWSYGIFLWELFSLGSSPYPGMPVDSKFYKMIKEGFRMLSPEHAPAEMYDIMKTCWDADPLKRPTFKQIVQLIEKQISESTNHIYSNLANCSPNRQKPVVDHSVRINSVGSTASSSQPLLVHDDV
Sequence of UniProt P52564 (whole entry, looked up): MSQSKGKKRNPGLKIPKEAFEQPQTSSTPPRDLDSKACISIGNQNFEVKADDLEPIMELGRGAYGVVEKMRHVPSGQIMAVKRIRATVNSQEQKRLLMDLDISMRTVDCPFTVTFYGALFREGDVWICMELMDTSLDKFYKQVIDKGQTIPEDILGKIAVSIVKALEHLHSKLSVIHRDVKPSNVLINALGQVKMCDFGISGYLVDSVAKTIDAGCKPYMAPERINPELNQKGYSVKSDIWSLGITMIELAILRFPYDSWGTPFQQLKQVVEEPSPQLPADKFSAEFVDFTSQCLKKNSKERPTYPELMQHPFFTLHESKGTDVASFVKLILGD

Set 1
Target: Sal-like protein 4, full length isoform B (SALL4, Homo sapiens, UniProt Q9UJQ4-2, residues 1-616)
Method: universal PBM
Molecule type: double-stranded DNA, one strand shown
Medium: in vitro
Concentration: not given
Notes: 8-mer, flanks averaged, mean of replicates
Reading: higher = stronger binding
Measurement: E-score
Target sequence (chain): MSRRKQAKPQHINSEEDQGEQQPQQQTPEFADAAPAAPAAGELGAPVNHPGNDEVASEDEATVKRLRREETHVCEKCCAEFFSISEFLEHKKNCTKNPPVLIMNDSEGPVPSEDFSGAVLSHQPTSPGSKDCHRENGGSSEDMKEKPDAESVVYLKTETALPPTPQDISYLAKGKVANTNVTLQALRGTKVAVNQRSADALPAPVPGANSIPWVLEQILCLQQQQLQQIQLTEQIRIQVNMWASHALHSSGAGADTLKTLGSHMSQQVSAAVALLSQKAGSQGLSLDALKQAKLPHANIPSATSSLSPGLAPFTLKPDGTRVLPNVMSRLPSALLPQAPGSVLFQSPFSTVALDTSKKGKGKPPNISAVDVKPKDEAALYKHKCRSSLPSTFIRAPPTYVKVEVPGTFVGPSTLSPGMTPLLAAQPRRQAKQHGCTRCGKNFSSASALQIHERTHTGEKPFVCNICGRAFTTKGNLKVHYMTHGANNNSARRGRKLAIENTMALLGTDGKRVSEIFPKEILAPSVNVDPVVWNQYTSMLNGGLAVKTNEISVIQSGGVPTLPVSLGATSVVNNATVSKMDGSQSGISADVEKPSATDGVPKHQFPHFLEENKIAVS
ATTAGTAA: 0.302
AAGTCGAG: -0.132
AAACAATG: 0.228
AAGCACCT: -0.107
CCCTTGTA: 0.0876
CCGGAGCC: -0.323
ATGAGGAC: 0.0152
CGGCTAGA: -0.199

Set 2
Species: human
Medium: microsomes or S9
Concentration: 2 µM
Time: 0.5 h
Measurement: remaining compound
CS(=O)(=O)N1CCC[C@H]1C(=O)N[C@H]1C[C@H](c2cc(=O)[nH]c(C3CC3)n2)C1: > 99%
Cc1cc(C)c(N2CC(=O)N(c3c(C)cc(C)cc3C)CC2=O)c(C)c1: 20.1%
COc1cc(Cl)c(C)cc1NC(=O)Cn1ncc2c(N3CCN(c4ccccn4)CC3)ncnc21: 36.1%

Set 3
Cell line: HaCaT
Concentration: 100 µM
Time: 36 h
Measurement: viability
CC(C)OC(=O)C(C(=O)OC(C)C)=C1SC=CS1: 28%
CCN(CCCc1ccccc1)CCCc1ccccc1: 4.6%
COC(=O)[C@@H]1[C@H]2C[C@H]3c4[nH]c5ccccc5c4CCN3C[C@@H]2CC[C@@H]1O: 59.6%

Set 4
Organism: Sarcocystis neurona
Observed: parasite growth
Concentration: 10 µM
Notes: secondary screen
Measurement: inhibition
O=C(O[C@H]1[C@H](Oc2ccccc2COC(=O)C2(O)C=CCCC2=O)O[C@H](CO)[C@@H](O)[C@@H]1O)c1ccccc1 (some centres unmarked): -41.7%
C[n+]1ccccc1/C=N/O: -30.3%
CC[C@H]1OC(=O)[C@H](C)[C@@H](O[C@H]2C[C@@](C)(OC)[C@@H](O)[C@H](C)O2)[C@H](C)[C@@H](O[C@@H]2O[C@H](C)C[C@H](N(C)C)[C@H]2O)[C@](C)(O)C[C@@H](C)CN(C)[C@H](C)[C@@H](O)[C@]1(C)O: -5.7%

Set 5
SMILES: COc1ccc2c(c1)O[C@H](c1ccc(OC)c(OC)c1)C[C@@H]2NC(=O)C1(c2ccc3c(c2)OC(F)(F)O3)CC1
Observed: cell-free assay
Method: competition with immobilised ligand
Concentration: 1 µM
Measurement: remaining binding
MST1R (Homo sapiens, UniProt Q04912): 100%
MAP2K6 (Homo sapiens, UniProt P52564): 100%
CAMK4 (Homo sapiens, UniProt Q16566): 100%
NTRK2 (Homo sapiens, UniProt Q16620): 100%
BRAF (Homo sapiens, UniProt P15056): 92%
CDK14 (Homo sapiens, UniProt O94921): 98%
Tyrosine-protein kinase ABL1, non-phosphorylated (ABL1, Homo sapiens, UniProt P00519, F317L): 97%
MAP2K2 (Homo sapiens, UniProt P36507): 100%
CLK3 (Homo sapiens, UniProt P49761): 100%
PIK3CB (Homo sapiens, UniProt P42338): 100%
PAK6 (Homo sapiens, UniProt Q9NQU5): 100%
CAMK1G (Homo sapiens, UniProt Q96NX5): 100%
TNK2 (Homo sapiens, UniProt Q07912): 99%
KIT (Homo sapiens, UniProt P10721, D816H): 100%
TSSK3 (Homo sapiens, UniProt Q96PN8): 100%

Some of these lines once more (set 4):
O=C(O[C@H]1[C@H](Oc2ccccc2COC(=O)C2(O)C=CCCC2=O)O[C@H](CO)[C@@H](O)[C@@H]1O)c1ccccc1 (some centres unmarked): -41.7%
C[n+]1ccccc1/C=N/O: -30.3%
CC[C@H]1OC(=O)[C@H](C)[C@@H](O[C@H]2C[C@@](C)(OC)[C@@H](O)[C@H](C)O2)[C@H](C)[C@@H](O[C@@H]2O[C@H](C)C[C@H](N(C)C)[C@H]2O)[C@](C)(O)C[C@@H](C)CN(C)[C@H](C)[C@@H](O)[C@]1(C)O: -5.7%
